Results of several laboratories.
Numbered parts are unrelated; each lists some results of a single study. Values joined by “and” are separate records of one study, mostly repeats; a detail may differ.
Chain of UniProt P54760 (whole entry, looked up): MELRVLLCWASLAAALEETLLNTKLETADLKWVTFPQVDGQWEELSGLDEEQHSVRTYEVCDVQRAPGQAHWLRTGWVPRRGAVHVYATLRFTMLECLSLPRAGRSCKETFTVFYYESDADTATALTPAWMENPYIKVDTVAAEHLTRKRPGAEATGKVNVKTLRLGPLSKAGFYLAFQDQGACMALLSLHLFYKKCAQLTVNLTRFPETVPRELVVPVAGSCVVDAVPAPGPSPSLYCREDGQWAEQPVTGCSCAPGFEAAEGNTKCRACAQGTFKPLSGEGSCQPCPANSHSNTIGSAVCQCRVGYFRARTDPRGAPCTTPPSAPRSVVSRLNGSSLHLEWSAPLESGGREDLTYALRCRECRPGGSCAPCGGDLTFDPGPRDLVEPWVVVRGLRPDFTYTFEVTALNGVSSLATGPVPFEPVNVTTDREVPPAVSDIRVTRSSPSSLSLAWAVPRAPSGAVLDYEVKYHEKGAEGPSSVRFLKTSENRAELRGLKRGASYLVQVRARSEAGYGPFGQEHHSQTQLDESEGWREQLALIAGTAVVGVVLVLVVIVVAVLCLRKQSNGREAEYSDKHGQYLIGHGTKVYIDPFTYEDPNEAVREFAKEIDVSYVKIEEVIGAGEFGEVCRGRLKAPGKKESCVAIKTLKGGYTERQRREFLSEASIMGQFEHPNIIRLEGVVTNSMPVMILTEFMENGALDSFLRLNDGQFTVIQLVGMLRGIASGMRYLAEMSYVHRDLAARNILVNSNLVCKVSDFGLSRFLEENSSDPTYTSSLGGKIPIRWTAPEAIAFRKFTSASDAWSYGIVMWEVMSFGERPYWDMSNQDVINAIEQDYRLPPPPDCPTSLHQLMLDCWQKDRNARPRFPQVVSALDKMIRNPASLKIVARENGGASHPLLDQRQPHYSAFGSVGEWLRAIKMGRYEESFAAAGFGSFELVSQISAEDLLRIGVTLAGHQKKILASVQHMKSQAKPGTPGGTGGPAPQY
Chain of UniProt Q86YV6 (whole entry, looked up): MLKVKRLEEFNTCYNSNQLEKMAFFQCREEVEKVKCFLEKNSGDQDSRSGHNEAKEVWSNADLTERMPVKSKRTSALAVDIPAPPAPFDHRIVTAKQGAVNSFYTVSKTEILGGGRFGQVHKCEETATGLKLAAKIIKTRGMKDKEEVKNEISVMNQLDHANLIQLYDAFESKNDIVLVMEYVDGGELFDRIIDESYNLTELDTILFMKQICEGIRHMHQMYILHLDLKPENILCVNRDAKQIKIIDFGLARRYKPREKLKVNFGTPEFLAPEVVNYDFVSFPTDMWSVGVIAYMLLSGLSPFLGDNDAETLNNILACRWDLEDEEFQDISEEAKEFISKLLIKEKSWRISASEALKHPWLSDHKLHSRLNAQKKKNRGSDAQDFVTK

Sample 1 — observed: enzyme activity; mode: inhibitor; method: fluorescence; quantity: inhibition
Structure (SMILES): Cc1nc2c([nH]1)c(=O)[nH]c(=S)n2Cc1cccc(OC/C(=C/F)CN)c1
MPO: Myeloperoxidase (MPO, Homo sapiens, UniProt P05164)
Chain of UniProt P05164 (whole entry, looked up): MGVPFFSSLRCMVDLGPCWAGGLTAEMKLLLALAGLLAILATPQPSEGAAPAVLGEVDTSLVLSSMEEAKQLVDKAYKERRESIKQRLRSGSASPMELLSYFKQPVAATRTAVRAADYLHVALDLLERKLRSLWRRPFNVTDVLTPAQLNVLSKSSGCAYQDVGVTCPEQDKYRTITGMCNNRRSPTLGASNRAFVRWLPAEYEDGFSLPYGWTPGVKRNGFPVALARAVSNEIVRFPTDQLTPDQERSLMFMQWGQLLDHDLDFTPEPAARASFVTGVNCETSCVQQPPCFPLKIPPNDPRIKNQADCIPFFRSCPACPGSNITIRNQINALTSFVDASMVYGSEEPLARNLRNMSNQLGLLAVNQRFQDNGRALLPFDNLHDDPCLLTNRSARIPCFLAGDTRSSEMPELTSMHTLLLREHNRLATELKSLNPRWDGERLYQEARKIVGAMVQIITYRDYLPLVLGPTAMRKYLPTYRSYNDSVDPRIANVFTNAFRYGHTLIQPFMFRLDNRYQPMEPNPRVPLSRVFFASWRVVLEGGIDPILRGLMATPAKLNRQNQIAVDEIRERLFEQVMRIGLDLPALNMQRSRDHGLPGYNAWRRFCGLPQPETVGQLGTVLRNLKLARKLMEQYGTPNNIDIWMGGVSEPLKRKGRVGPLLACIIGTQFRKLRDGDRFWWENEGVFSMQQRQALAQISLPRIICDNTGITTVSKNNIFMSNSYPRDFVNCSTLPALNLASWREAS
AOC3: Amine oxidase [copper-containing] 3 (AOC3, Homo sapiens, UniProt Q16853)
Chain of UniProt Q16853 (whole entry, looked up): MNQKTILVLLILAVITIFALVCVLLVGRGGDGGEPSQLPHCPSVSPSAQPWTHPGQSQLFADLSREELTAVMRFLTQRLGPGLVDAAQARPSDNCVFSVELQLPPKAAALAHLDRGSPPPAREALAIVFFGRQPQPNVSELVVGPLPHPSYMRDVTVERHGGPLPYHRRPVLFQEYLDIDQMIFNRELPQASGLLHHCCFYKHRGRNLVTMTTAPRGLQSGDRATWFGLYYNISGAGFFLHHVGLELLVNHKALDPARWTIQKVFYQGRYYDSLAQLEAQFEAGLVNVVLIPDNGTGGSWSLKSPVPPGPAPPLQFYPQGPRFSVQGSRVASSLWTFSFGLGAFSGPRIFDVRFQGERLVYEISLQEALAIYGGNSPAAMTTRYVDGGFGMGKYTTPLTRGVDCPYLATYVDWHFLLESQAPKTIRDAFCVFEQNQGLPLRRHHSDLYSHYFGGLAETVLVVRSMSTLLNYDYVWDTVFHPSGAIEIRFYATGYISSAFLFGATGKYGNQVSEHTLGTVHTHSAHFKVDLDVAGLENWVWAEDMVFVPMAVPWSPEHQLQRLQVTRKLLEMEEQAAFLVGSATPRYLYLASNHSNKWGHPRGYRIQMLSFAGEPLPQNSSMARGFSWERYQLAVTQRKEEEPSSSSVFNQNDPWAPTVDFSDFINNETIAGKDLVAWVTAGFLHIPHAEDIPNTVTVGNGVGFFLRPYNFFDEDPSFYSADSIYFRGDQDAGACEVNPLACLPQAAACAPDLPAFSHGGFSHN
MPO; 10 µM: 94.9%
MPO; 0.5556 µM: 42.1% and 28.1%
AOC3; 1.111 µM: 96.3% and 99.7% and 98.5% and 99.5%
MPO; 1.111 µM: 68.1%
AOC3; 41.2 nM: 63.6% and 64.8% and 75.5% and 78.1%
MPO; 5 µM: 95.7% and 95.3%
AOC3; 0.3704 µM: 94.9% and 98.2% and 98.5%
MPO; 0.1235 µM: 12.6%

Sample 2 — tested at: 1 µM; quantity: remaining binding
Compound: CCC1(c2cccc(-c3cn(C)nc3C)c2)C2=C(Nc3n[nH]cc31)C(F)C(C)(C)CC2=O (single isomer, unassigned)
EPHB4 (Homo sapiens, UniProt P54760); binding, competition with immobilised ligand: 100%
MYLK4 (Homo sapiens, UniProt Q86YV6); kinase binding, KINOMEscan; baseline: DMSO control: 100%
TLK1 (Homo sapiens, UniProt Q9UKI8); kinase binding, KINOMEscan; baseline: DMSO control: 96%
Tyrosine-protein kinase ABL1, non-phosphorylated (ABL1, Homo sapiens, UniProt P00519, Q252H); kinase binding, KINOMEscan; baseline: DMSO control: 87%
PDPK1 (Homo sapiens, UniProt O15530); kinase binding, KINOMEscan; baseline: DMSO control: 100%
PTK2B (Homo sapiens, UniProt Q14289); binding, competition with immobilised ligand: 100%
PKN2 (Homo sapiens, UniProt Q16513); kinase binding, KINOMEscan; baseline: DMSO control: 100%
SIK1 (Homo sapiens, UniProt P57059); KINOMEscan: 92%
GAK (Homo sapiens, UniProt O14976); binding, competition with immobilised ligand: 100%
EPHB6 (Homo sapiens, UniProt O15197); kinase binding, KINOMEscan; baseline: DMSO control: 100%
MAP2K1 (Homo sapiens, UniProt Q02750); binding, competition with immobilised ligand: 69%
LRRK2 (Homo sapiens, UniProt Q5S007, G2019S); binding, competition with immobilised ligand: 92%
ZAP70 (Homo sapiens, UniProt P43403); binding, competition with immobilised ligand: 91%
MATK (Homo sapiens, UniProt P42679); kinase binding, KINOMEscan; baseline: DMSO control: 95%
CSK (Homo sapiens, UniProt P41240); kinase binding, KINOMEscan; baseline: DMSO control: 100%
BTK (Homo sapiens, UniProt Q06187); kinase binding, KINOMEscan; baseline: DMSO control: 98%

Sample 3 — observed: thermal unfolding; method: differential scanning fluorimetry; tested at: 5.5 µM; reading: higher = more unfolded; quantity: SYPRO Orange fluorescence
SMILES: C[C@@H]1CN(c2ccc(-c3cc(C(=O)NCCOCCOCCOCCOCCOCCOCCNC(=O)/C=C/c4[nH]cc(C(=O)N[C@@H](CC(N)=O)c5ccc(F)c(Cl)c5)c4-c4ccc(Cl)cc4F)ccc3F)cc2NC(=O)c2ccc(F)cc2C(F)(F)F)C[C@H](C)N1C
DCAF1: DDB1- and CUL4-associated factor 1 (DCAF1, Homo sapiens, UniProt Q9Y4B6)
Chain of UniProt Q9Y4B6 (whole entry, looked up): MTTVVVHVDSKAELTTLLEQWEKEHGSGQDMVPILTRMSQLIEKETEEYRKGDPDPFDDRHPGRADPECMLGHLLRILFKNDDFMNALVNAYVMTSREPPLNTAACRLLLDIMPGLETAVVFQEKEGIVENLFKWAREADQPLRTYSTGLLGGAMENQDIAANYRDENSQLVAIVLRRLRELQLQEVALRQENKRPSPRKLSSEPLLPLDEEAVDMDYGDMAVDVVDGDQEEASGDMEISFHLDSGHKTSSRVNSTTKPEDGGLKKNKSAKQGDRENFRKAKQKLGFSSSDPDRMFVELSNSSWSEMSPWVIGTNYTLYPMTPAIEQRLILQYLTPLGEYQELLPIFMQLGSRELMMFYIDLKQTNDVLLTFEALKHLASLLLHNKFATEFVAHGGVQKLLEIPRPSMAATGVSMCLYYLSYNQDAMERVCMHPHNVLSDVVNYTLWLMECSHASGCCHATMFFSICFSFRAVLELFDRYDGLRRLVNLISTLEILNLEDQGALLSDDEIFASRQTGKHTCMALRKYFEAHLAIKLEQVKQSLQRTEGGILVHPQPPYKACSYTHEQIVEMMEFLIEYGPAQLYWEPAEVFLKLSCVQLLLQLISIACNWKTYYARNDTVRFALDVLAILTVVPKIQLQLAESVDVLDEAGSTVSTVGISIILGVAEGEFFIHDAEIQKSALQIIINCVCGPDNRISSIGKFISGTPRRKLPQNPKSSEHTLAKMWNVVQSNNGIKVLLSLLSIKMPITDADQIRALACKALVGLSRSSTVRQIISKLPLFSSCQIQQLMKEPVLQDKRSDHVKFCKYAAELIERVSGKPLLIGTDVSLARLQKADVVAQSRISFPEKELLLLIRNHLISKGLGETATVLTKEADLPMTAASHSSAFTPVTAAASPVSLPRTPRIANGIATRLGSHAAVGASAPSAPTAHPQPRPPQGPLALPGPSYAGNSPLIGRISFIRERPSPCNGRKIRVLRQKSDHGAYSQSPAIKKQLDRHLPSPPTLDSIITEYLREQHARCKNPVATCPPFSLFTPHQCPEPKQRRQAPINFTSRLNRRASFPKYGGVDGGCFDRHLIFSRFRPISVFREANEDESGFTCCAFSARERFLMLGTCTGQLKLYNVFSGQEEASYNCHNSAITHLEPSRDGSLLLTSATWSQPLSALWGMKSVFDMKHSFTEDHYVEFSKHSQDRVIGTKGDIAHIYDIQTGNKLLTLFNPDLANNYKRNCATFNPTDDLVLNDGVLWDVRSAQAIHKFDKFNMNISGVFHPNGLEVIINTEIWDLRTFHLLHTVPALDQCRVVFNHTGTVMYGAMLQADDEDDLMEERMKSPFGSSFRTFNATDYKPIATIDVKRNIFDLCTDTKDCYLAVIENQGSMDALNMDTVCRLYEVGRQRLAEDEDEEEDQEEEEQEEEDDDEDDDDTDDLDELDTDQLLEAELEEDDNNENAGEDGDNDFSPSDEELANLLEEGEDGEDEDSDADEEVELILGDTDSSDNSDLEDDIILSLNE
WDR5: WD repeat-containing protein 5 (WDR5, Homo sapiens, UniProt P61964)
DCAF1; 35.8 °C: 10200 a.u.
WDR5; 33.6 °C: 13800 a.u.
DCAF1; 47.2 °C: 16000 a.u.
DCAF1; 64.61 °C: 53800 a.u.
WDR5; 56.01 °C: 16300 a.u.
DCAF1; 92.01 °C: 30900 a.u.
WDR5; 72.41 °C: 37300 a.u.
DCAF1; 42.8 °C: 13300 a.u.
DCAF1; 76.01 °C: 42900 a.u.
WDR5; 75.01 °C: 48700 a.u.
WDR5; 93.41 °C: 50100 a.u.

Sample 4 — observed: kinase activity; quantity: inhibition
Structure (SMILES): CN(C1COC1)C(C)(C)/C=C(\C#N)C(=O)N1CCC[C@H]1Cn1nc(-c2ccc(Oc3ccccc3)cc2F)c2c(N)ncnc21
BMX: Cytoplasmic tyrosine-protein kinase BMX (BMX, Homo sapiens, UniProt P51813)
Chain of UniProt P51813 (whole entry, looked up): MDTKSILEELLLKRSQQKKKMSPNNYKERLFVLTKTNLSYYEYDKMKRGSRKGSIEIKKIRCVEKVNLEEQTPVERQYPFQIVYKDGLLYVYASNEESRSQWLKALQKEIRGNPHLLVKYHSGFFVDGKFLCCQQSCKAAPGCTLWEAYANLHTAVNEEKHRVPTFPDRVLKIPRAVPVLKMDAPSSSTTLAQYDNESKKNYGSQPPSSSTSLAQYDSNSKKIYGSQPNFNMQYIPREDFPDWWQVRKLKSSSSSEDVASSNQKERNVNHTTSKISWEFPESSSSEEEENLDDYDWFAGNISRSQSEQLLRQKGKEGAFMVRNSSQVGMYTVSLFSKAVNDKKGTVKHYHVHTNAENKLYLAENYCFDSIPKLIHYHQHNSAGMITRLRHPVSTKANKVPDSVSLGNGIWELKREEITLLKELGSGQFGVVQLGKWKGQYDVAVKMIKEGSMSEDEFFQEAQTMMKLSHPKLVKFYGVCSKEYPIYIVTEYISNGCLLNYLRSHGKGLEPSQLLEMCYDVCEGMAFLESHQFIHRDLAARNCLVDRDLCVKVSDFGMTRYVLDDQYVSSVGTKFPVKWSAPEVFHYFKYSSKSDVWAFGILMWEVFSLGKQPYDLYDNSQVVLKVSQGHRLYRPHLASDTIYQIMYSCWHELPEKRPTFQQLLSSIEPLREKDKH
CAMK2D (Homo sapiens, UniProt Q13557); 0.1 µM: 4%
PRKCA (Homo sapiens, UniProt P17252); 1 µM: -3%
PLK1 (Homo sapiens, UniProt P53350); 1 µM: -16%
RIPK2 (Homo sapiens, UniProt O43353); 0.1 µM: 64%
ABL2 (Homo sapiens, UniProt P42684); 1 µM: -1%
TNIK (Homo sapiens, UniProt Q9UKE5); 1 µM: 1%
Cyclin-dependent kinase 9, with cyclin T1 (CDK9, Homo sapiens, UniProt P50750); 1 µM: -3%
Aurora kinase C (AURKC, Homo sapiens, UniProt Q9UQB9); 1 µM: -3%
FGFR4 (Homo sapiens, UniProt P22455); 0.1 µM: 9%
PTK2 (Homo sapiens, UniProt Q05397); 0.1 µM: 5%
MAP4K4 (Homo sapiens, UniProt O95819); 1 µM: -1%
CAMK4 (Homo sapiens, UniProt Q16566); 0.1 µM: 4%
GRK7 (Homo sapiens, UniProt Q8WTQ7); 0.1 µM: 7%
EPHA3 (Homo sapiens, UniProt P29320); 1 µM: -3%
BMX; 1 µM: 98%
ERBB2 (Homo sapiens, UniProt P04626); 1 µM: 1%
BMX; 0.1 µM: 94%

For quick reference, copied from above (sample 1):
AOC3; 1.111 µM: 96.3% and 99.7% and 98.5% and 99.5%
MPO; 1.111 µM: 68.1%
AOC3; 41.2 nM: 63.6% and 64.8% and 75.5% and 78.1%
MPO; 5 µM: 95.7% and 95.3%
